Measured values collected from several papers.
A part holds a random share of what one study measured. Substitutions count along the parent as printed.

Block 1
Target: HLA class I histocompatibility antigen, A alpha chain, allele A*25:01 (Homo sapiens, UniProt P04439)
Effect on: peptide-MHC binding
Form: peptide
Concentration: concentration not given
| Sequence | binding |
| --- | --- |
| YQTYVSPGA | inactive |
| NTDEIPELI | inactive |
| LMQCWQLLA | inactive |
| MHDPHSIPL | inactive |
| YSDNEMLTH | inactive |
| DEEAINLFH | inactive |
| MHYKLDEVL | inactive |

Block 2
Target: Interferon regulatory factor 7, full length, phosphomimetic (IRF7, Homo sapiens, UniProt Q92985, residues 1-503, S471D/S472D/S475D/S476D/S477D/S483D/S484D/S487D)
UniProt Q92985, sequence (whole entry, unmodified, looked up): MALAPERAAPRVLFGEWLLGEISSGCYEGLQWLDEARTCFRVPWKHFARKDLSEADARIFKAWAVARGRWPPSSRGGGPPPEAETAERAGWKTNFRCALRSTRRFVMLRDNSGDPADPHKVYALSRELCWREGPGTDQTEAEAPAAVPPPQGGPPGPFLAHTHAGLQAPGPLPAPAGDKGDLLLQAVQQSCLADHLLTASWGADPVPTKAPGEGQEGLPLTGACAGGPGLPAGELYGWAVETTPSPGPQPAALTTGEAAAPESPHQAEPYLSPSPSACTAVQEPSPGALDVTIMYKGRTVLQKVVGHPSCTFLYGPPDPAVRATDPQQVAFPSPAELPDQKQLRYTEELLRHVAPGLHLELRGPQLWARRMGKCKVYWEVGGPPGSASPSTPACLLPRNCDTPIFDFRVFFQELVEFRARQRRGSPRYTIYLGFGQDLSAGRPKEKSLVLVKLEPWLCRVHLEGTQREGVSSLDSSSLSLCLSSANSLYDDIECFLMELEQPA
Method: protein-binding microarray
Form: double-stranded DNA, one strand shown
Sample: in vitro
Concentration: 2200 nM top
Notes: 60-bp whole probe
With: salmon DNA 0.4 mg/ml
Baseline: random background probes
Direction: higher = stronger binding
Shared flanks, not repeated: GCCTAGCAC … GTCTTGATTCGCTTGACGCTGCTG
| Oligonucleotide | fitted relative affinity [z-score] |
| --- | --- |
| TTAGGTATCGGTTACGGTTAGTGCTAG | 0.934 |
| GCTGGTCACTCTCTGGGCTGGTGCTAG | -0.149 |
| GACGGTCTCAGTTTCGGGACGTGCTAG | 3.8 |
| TCATGCATCTGATTTCTCACTGTGCTA | 1.06 |
| TTAGGTTTCCTTTCCCTTTCGTGCTAG | 5.74 |
| TTAGGTTTCGGGTTTCGGATAGTGCTA | 9.69 |
| CCAGGGACAAAGCGGTGCGAGTGCTAG | -1.3 |
| AGGAGTATTTATCTGCAAAGGTGCTAG | -0.0899 |

Block 3
Target: CCNE1, cyclin fold, Cln2 fusion (human)
Method: yeast growth competition, sequencing
Sample: yeast
Notes: strong parent motif
Baseline: not given
Direction: higher = stronger binding
Starting sequence: viral docking peptide; YKVKRRLVFGADD; partner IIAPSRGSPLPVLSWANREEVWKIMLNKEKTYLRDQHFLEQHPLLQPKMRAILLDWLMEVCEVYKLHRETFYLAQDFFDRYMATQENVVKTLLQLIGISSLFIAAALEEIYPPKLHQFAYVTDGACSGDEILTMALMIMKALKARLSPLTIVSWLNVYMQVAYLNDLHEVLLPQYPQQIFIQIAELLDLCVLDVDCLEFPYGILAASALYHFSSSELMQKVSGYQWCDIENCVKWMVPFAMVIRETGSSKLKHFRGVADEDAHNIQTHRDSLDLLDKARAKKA
| Change | normalised enrichment score |
| --- | --- |
| YKVKRRLTFGADD [V8T] | 6.25 |
| YKPKRRLVFGADD [V3P] | 1.39 |
| YKQKRRLVFGADD [V3Q] | 0.638 |
| YKVKNRLVFGADD [R5N] | 0.0268 |
| YKVKRRLVFGAFD [D12F] | 4.96 |
| YKVKRRLVGGADD [F9G] | 0.215 |
| YKVKRRDVFGADD [L7D] | 0.339 |
| YKVKRRLVFTADD [G10T] | 5.29 |
| YKEKRRLVFGADD [V3E] | 0.35 |
| YKGKRRLVFGADD [V3G] | 1.95 |
| YKVKMRLVFGADD [R5M] | 0.316 |
| YKVKRRYVFGADD [L7Y] | 0.109 |
| YKVKRRLAFGADD [V8A] | 4.63 |
| YKVKRGLVFGADD [R6G] | 0.082 |

Block 4
Target: UBE2W UBC core domain (UniProt Q96B02)
Method: yeast two-hybrid
Sample: yeast
Notes: mostly zero background
Baseline: not given
Direction: higher = stronger interaction
B1: TRIM41 RING domain (UniProt Q8WV44); chain PVQTLQEEAVCAICLDYFTDPVSIGCGHNFCRVCVTQLWGGEDEEDRDELDREEEEEDGEEE
B2: CNOT4 RING domain (UniProt O95628); chain MSRSPDAKEDPVECPLCMEPLEIDDINFFPCTCGYQICRFCWHRIRTDENGLCPACRKPYPED
B3: RNF6 RING domain (UniProt Q9Y252); chain NSIDSELGKICSVCISDYVTGNKLRQLPCMHEFHIHCIDRWLSENCTCPICRQPVLGSNIAN
B4: BFAR RING domain (UniProt Q9NZS9); chain GPQISVSEFSCHCCYDILVNPTTLNCGHSFCRHCLALWWASSKKTECPECREKWEGFPKVS
B5: ZNRF4 RING domain (UniProt Q8WWF5); chain VRTFTWHNDLCAICLDEYEEGDQLKILPCSHTYHCKCIDPWFSQAPRRSCPVCKQSVAATEDSF
Residues (chain): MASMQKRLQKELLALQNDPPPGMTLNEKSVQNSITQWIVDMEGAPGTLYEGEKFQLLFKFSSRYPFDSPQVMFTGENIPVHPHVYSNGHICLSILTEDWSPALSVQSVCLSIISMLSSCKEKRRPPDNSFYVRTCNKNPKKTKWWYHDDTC
| Sequence | lacZ reporter activity |
| --- | --- |
| B1 (TRIM41 RING domain) | 0 |
| B2 (CNOT4 RING domain) | 10400 |
| B3 (RNF6 RING domain) | 0 |
| B4 (BFAR RING domain) | 0 |
| ASEEEFQFLRCQQCQAEAKCPKLLPCLHTLCSGCLEASGMQCPICQAPWPLGADTP (PML RING domain (UniProt P29590)) | 2850 |
| B5 (ZNRF4 RING domain) | 10400 |

Repeated from above (block 4):
| Sequence | lacZ reporter activity |
| --- | --- |
| B1 (TRIM41 RING domain) | 0 |
| B5 (ZNRF4 RING domain) | 10400 |
| B2 (CNOT4 RING domain) | 10400 |
| B3 (RNF6 RING domain) | 0 |
